Results of several laboratories.
Lines come from different studies, so protocols differ.
Organism: Staphylococcus aureus

Compound = CC(=O)N[C@@H](CC(C)C)C(=O)N[C@H]1CSSC[C@@H](C(=O)N2CCC[C@H]2C(N)=O)NC(=O)[C@H]([C@@H](C)O)NC(=O)[C@H](C(C)C)NC(=O)[C@H]([C@@H](C)O)NC(=O)CNC(=O)[C@H](CC(C)C)NC(=O)[C@H](Cc2ccccc2)NC(=O)[C@H](Cc2ccc(O)cc2)NC(=O)[C@H](CC(C)C)NC(=O)[C@H](CCCCN)NC(=O)[C@H](Cc2ccccc2)NC(=O)[C@H](CCCNC(=N)N)NC(=O)[C@H](CCC(N)=O)NC(=O)[C@H](CC(C)C)NC(=O)[C@H](CCCCN)NC(=O)[C@@H]2CCCN2C(=O)[C@H](CCCCN)NC(=O)[C@H](C(C)C)NC(=O)[C@H](CCCCN)NC(=O)[C@H](Cc2ccc(O)cc2)NC(=O)[C@H]([C@@H](C)O)NC1=O; method = broth dilution; strain = laboratory strain; time = 24 h; MIC = 5 to 10 µM
Compound = CN[C@H](CC(C)C)C(=O)N[C@H]1C(=O)N[C@@H](CC(N)=O)C(=O)N[C@H]2C(=O)N[C@H]3C(=O)N[C@H](C(=O)N[C@H](C(=O)NCc4cn(CC(=O)N[C@H](C(=O)N[C@@H](CCN)C(=O)N[C@H]5CCNC(=O)[C@H]([C@@H](C)O)NC(=O)[C@H](CCN)NC(=O)[C@H](CCN)NC(=O)[C@H](CC(C)C)NC(=O)[C@@H](CC(C)C)NC(=O)[C@H](CCN)NC5=O)[C@@H](C)O)nn4)c4cc(O)cc(O)c4-c4cc3ccc4O)[C@H](O)c3ccc(c(Cl)c3)Oc3cc2cc(c3O[C@@H]2O[C@H](CO)[C@@H](O)[C@H](O)[C@H]2O[C@H]2C[C@](C)(N)[C@H](O)[C@H](C)O2)Oc2ccc(cc2Cl)[C@H]1O; strain = MRSA USA300; MIC = 0.2 µM
Compound = C=C(NC(=O)c1csc(-c2nc3c(cc2O)-c2nc(cs2)C(=O)NC(C(C)O)C(=O)NC(=C(C)OC)c2nc(cs2)C(=O)NC2c4nc(cs4)C(=O)NC(COC(=O)c4c5c6c(cccc6n4O)COC(=O)C(OC4CC(C)(O)C(N(C)C)C(C)O4)C2OC5)c2nc-3cs2)n1)C(N)=O (stereo not shown); strain = MRSA strain 1, vancomycin-induced; notes = 20 generations; MIC = 0.0312 µg/mL
Compound = CC[C@H](C)[C@H](NC(=O)[C@H](C)NC(=O)[C@@H](NC(=O)[C@H](CC(=O)O)NC(=O)[C@H](CCCCN)NC(=O)[C@H](CO)NC(=O)[C@@H](NC(=O)[C@H](CC(N)=O)NC(=O)[C@H](C)NC(=O)[C@@H](NC(=O)[C@H](CCC(=O)O)NC(=O)[C@H](CCCCN)NC(=O)[C@@H](NC(=O)[C@@H](NC(=O)[C@H](Cc1c[nH]cn1)NC(=O)[C@H](CCCCN)NC(=O)[C@@H](NC(=O)[C@H](CCCCN)NC(=O)[C@H](CCCCN)NC(=O)[C@@H](NC(=O)[C@H](CC(C)C)NC(=O)[C@H](CCCCN)NC(=O)[C@H](CC(N)=O)NC(=O)[C@H](Cc1ccccc1)NC(=O)[C@H](CCCNC(=N)N)NC(=O)[C@H](CCCCN)NC(=O)[C@H](CCCNC(=N)N)NC(=O)[C@H](Cc1ccccc1)NC(=O)CN)C(C)C)C(C)C)[C@@H](C)O)[C@@H](C)CC)[C@@H](C)O)C(C)C)C(C)C)C(=O)N[C@H](C(=O)N[C@@H](C)C(=O)NCC(=O)N[C@@H](CO)C(=O)NCC(=O)N[C@H](C(=O)N[C@@H](C)C(=O)N[C@H](C(=O)NCC(=O)N[C@@H](C)C(=O)N[C@@H](C)C(=O)N[C@@H](CCSC)C(N)=O)C(C)C)C(C)C)C(C)C; method = broth microdilution; strain = ATCC 25923; sample = CAMHB; MIC = > 1020 µg/mL
Compound = CC(C)C[C@@H]1NC(=O)[C@H](CCCCN)NC(=O)CNC(=O)[C@H]2CCCN2C(=O)[C@H](CCCCN)NC(=O)[C@H](CC(C)C)NC(=O)[C@H](CCCCN)NC(=O)[C@H](CC(C)C)NC(=O)[C@H](CCCCN)NC(=O)C(N)CCC=CCCC(C(N)=O)NC(=O)[C@H](CCCCN)NC(=O)[C@H](CC(C)C)NC(=O)[C@H](CCCCN)NC1=O (stereo partly shown); method = broth microdilution; strain = ATCC 29737; sample = Mueller-Hinton broth; time = 18 h; temperature = 37 °C; MIC = 64 µM
Compound = CC[C@H](C)[C@@H]1NC(=O)[C@H](CO)NC(=O)C(C)(CCCCN)NC(=O)[C@@H]2CSSC[C@@H](C(=O)N[C@@H](Cc3ccc(O)cc3)C(N)=O)NC(=O)[C@H](CCCCN)NC(=O)[C@@H]3CSSC[C@H](NC(=O)[C@H](CCCNC(=N)N)NC(=O)C(C)(CC(C)C)NC(=O)[C@H](CC(=O)O)NC(=O)[C@H](CC(=O)O)NC(=O)[C@H](CCC(=O)O)NC(=O)[C@H](CC(N)=O)NC(=O)[C@H](Cc4c[nH]c5ccccc45)NC(=O)C(C)(CC)NC(=O)CNC(=O)[C@H](CC(N)=O)NC(=O)[C@@H](NC(=O)CNC(=O)[C@H](Cc4ccccc4)NC(=O)CN)CSSC[C@H](NC(=O)[C@H](Cc4ccc(O)cc4)NC(=O)CNC(=O)CNC(=O)[C@H](CCCCN)NC(=O)[C@H](Cc4ccc(O)cc4)NC(=O)[C@H]4CCCN4C(=O)[C@@H]4CCCN4C1=O)C(=O)N[C@@H](C)C(=O)N[C@@H](CCCCN)C(=O)N1CCC[C@@H]1C(=O)NCC(=O)N[C@@H](Cc1ccccc1)C(=O)N[C@@H](C(C)C)C(=O)N3)C(=O)N[C@@H](Cc1c[nH]cn1)C(=O)NC(C)(C)C(=O)N[C@@H](Cc1c[nH]cn1)C(=O)N2 (stereo partly shown); strain = 473, methicillin-resistant mecA; sample = cation-adjusted Mueller Hinton broth; time = 18 h; temperature = 37 °C; MIC = 2 µM
Compound = Cc1ccc2[nH]c3c(c2c1)CCCC3NCCc1ccc(Br)cc1 (stereo not shown); method = broth microdilution; strain = Mu50 VISA; MIC = 4 µg/mL
Compound = CC[C@@](C)(NC)C(=O)NC(C)(C)C(=O)NC(C)(C)C(=O)NC(C)(C)C(=O)NCC(=O)NC(C)(C)C(=O)N1CCC[C@@H]1C(=O)N[C@@H](Cc1c[nH]c2ccccc12)C(=O)NC(C)(C)C(=O)N1C[C@H](O)C[C@@H]1C(=O)N[C@@H](C)C(=O)NC(C)(C)C(=O)NCCCC(=O)N[C@@H](CC(C)C)C(=O)N[C@](C)(CC)C(=O)NC(C)(C)C(=O)N[C@](C)(CC)C(=O)N[C@H](CO)Cc1ccccc1; method = broth microdilution; strain = ATCC 29213; time = 16 to 20 h; temperature = 37 °C; notes = Mueller-Hinton broth; MIC = 2 µg/mL
Compound = CC[C@H](C)[C@H](NC(=O)[C@@H](CCCNC(=N)N)NC(=O)[C@H](CCCNC(=N)N)NC(=O)[C@@H]1CCCN1C(=O)[C@@H]1CCCN1C(=O)[C@H](CCCNC(=N)N)NC(=O)[C@@H]1CCCN1C(=O)[C@H](CCCNC(=N)N)NC(=O)[C@@H]1CCCN1C(=O)[C@H](CC(C)C)NC(=O)[C@H](Cc1ccc(O)cc1)NC(=O)[C@H](Cc1ccccc1)NC(=O)[C@@H]1CCCN1C(=O)[C@H](CCCCN)NC(=O)[C@H](CC(=O)O)NC(=O)[C@@H](N)C(C)C)C(=O)N[C@@H](Cc1ccc(O)cc1)C(=O)N[C@@H](CC(N)=O)C(=O)N[C@H](CCCNC(=N)N)C(N)=O; method = broth microdilution; strain = DSM 6247; time = 18 h; temperature = 37 °C; notes = 25% MHB2; MIC = > 128 µg/mL
Compound = CC(C)C[C@@H]1NC(=O)[C@@H](CC(C)C)NC(=O)[C@H](CCN)NC(=O)[C@@H](NC(=O)[C@H](CCN)NC(=O)[C@@H](NC(=O)CCOCCOCCOCCN=[N+]=[N-])[C@@H](C)O)CCNC(=O)[C@H]([C@@H](C)O)NC(=O)[C@H](CCN)NC(=O)[C@H](CCN)NC1=O; method = broth microdilution; strain = MSSA ATCC 29213; sample = cation-adjusted Mueller-Hinton broth; time = 20 to 24 h; temperature = 37 °C; notes = 0.002% polysorbate 80; MIC = > 16 µg/mL
Compound = CC[C@H](C)[C@H](NC(=O)[C@H](CCCCN)NC(=O)[C@H](Cc1c[nH]c2ccccc12)NC(=O)[C@H](Cc1c[nH]c2ccccc12)NC(=O)[C@H](CCCCN)NC(=O)[C@H](CCCCN)NC(=O)[C@H](CCCCN)NC(=O)[C@H](Cc1c[nH]c2ccccc12)NC(=O)[C@H](CCCCN)NC(=O)[C@H](CCCCN)NC(=O)[C@H](Cc1c[nH]c2ccccc12)NC(=O)[C@H](CCCCN)NC(=O)[C@H](CCCCN)NC(=O)[C@@H](NC(=O)[C@@H](NC(=O)[C@H](CCCCN)NC(=O)[C@@H](N)CCCNC(=N)N)[C@@H](C)CC)[C@@H](C)CC)C(=O)N[C@@H](Cc1c[nH]c2ccccc12)C(=O)N[C@@H](Cc1c[nH]c2ccccc12)C(=O)N[C@@H](CCCCN)C(N)=O; method = broth microdilution; strain = MRSA 109; MIC = 1.25 µg/mL
Compound = C#CCNC(=O)[C@H]1NC(=O)[C@H]2NC(=O)[C@H](NC(=O)[C@@H]3NC(=O)[C@H](CC(N)=O)NC(=O)[C@H](NC(=O)[C@@H](CC(C)C)NC)[C@H](O)c4ccc(c(Cl)c4)Oc4cc3cc(c4O[C@@H]3O[C@H](CO)[C@@H](O)[C@H](O)[C@H]3O[C@H]3C[C@](C)(N)[C@H](O)[C@H](C)O3)Oc3ccc(cc3Cl)[C@H]2O)c2ccc(O)c(c2)-c2c(O)cc(O)cc21; strain = LIM-2 VISA; MIC = 1 µM
Compound = CCCCCCCC[C@@H]1NC(=O)[C@@H](CCCN)NC(=O)[C@@H](NC(=O)[C@@H](NC(=O)[C@@H](CCC(=O)O)NC(=O)[C@H](CC(C)C)NC(=O)[C@@H]2CSC([C@@H](N)[C@@H](C)CC)=N2)[C@@H](C)CC)CCCCNC(=O)[C@H](CC(N)=O)NC(=O)[C@@H](CC(=O)O)NC(=O)[C@H](Cc2c[nH]cn2)NC(=O)[C@@H](Cc2ccccc2)NC1=O; strain = ATCC 29213 MSSA; notes = LB without zinc; MIC = 0.5 µg/mL
